Earlier results, collected from citations in different studies.
Each line is one published result; not all experiments were run side by side. ± marks the error that the study gave.
Sequence of UniProt P05177 (whole entry, looked up): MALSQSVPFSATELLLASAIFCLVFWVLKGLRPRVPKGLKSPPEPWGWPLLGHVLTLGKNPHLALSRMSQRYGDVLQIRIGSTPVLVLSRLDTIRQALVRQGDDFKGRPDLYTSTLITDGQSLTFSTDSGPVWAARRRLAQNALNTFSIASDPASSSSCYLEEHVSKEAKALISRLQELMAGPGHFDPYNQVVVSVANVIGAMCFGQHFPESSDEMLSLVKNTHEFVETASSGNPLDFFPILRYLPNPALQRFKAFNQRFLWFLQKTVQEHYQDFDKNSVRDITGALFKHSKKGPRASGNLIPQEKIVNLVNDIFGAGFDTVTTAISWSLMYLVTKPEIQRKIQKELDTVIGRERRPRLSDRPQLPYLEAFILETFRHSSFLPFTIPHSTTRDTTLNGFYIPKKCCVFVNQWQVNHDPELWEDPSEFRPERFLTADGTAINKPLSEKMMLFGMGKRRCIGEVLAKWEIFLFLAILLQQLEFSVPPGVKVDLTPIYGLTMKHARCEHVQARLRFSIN
Sequence of UniProt P33261 (whole entry, looked up): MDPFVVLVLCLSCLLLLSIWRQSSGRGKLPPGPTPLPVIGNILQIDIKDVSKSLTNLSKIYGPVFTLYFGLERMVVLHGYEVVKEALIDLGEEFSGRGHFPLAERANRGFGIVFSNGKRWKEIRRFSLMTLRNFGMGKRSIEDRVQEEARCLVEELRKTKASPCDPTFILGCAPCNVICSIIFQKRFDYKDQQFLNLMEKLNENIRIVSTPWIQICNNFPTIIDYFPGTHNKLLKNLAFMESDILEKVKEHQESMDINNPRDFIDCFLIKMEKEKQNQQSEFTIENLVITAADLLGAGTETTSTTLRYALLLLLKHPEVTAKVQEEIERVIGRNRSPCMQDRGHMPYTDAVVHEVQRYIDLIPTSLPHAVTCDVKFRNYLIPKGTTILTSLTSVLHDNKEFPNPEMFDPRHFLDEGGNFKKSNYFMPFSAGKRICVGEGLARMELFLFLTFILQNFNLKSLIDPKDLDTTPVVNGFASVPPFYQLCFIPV
Sequence of UniProt P08183 (whole entry, looked up): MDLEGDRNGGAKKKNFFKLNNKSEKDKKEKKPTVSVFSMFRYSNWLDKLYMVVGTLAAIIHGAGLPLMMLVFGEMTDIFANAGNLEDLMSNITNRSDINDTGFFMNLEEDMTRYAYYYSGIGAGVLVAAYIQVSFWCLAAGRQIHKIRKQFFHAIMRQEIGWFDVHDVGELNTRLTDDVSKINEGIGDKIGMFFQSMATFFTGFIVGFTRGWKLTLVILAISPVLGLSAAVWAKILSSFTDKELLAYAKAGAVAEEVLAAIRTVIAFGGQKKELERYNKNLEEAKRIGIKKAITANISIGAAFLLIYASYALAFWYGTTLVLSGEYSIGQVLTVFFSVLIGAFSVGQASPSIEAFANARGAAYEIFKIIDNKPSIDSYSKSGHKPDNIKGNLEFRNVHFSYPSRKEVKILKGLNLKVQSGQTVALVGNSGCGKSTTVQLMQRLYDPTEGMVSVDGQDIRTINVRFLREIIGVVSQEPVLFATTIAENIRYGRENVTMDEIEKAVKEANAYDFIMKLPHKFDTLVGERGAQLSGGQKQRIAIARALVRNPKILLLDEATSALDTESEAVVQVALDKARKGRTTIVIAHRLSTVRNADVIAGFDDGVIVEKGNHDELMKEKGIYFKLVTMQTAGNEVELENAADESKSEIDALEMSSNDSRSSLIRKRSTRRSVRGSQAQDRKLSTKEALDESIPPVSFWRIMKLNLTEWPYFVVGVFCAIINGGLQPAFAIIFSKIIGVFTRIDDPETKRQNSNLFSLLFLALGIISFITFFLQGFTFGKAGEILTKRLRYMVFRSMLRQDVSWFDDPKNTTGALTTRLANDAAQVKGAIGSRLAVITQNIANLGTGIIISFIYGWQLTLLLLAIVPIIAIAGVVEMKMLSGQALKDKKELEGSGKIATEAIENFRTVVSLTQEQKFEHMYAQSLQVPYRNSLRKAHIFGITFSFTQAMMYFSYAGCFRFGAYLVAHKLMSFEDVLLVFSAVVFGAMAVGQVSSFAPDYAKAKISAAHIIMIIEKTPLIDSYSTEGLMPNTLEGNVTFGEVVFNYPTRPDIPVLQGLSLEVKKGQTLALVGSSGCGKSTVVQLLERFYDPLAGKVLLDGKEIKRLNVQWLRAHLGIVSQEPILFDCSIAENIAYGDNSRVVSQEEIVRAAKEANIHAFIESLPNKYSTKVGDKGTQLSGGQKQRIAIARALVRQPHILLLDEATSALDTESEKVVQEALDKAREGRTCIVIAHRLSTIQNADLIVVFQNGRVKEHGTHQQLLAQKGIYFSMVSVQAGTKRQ

The GI50 of `O=C1c2ccccc2-c2c1c1ccc([N+](=O)[O-])cc1c(=O)n2C[C@H](O)CO` is reported as 0.025 µM (HCT-116; cell growth; colon cancer).
With `CN1CCN(c2cc(-c3ccccc3CO)c(N(C)C(=O)C(C)(C)c3cc(C(F)(F)F)cc(C(F)(F)F)c3)cn2)CC1` the half-life was 65.6 h (healthy volunteers, plasma; oral, dose not given, netupitant-palonosetron, fasted).
For `CC(=O)O[C@H]1C2=C(C(=O)C(OC(=O)c3ccc([N+](=O)[O-])cc3)=C(C(C)C)C2=O)[C@@]2(C)CCCC(C)(C)[C@@H]2[C@@H]1O`, the GI50 was 5 to 10 µM (HL-60; cell growth).
For `CC(=O)N1CCC(NC(=O)NC23CC4CC(C)(CC(C2)c2ccccc24)C3)CC1`, the inhibition was 19 ± 5% (Cytochrome P450 2C19 (CYP2C19, Homo sapiens, UniProt P33261); 10 µM).
`O=C1c2ccccc2-c2c1c1ccc([N+](=O)[O-])cc1c(=O)n2C[C@H](O)[C@@H](O)[C@H](O)[C@H](O)CO` gave a GI50 of 7.35 µM (HOP-62; cell growth; lung cancer).
For `Cc1ccccc1-c1cc(N2CC[N+](C)([O-])CC2)ncc1N(C)C(=O)C(C)(C)c1cc(C(F)(F)F)cc(C(F)(F)F)c1`, the exposure ratio was 14% (systemic circulation; baseline: metabolite over netupitant).
The inhibition of `COc1ccc(Nc2nccc(-c3c[nH]nc3-c3cccnc3)n2)cc1` is reported as 84% (Cytochrome P450 1A2 (CYP1A2, Homo sapiens, UniProt P05177); 10 µM).
The Tmax of `Cc1ccccc1-c1cc(N2CCNCC2)ncc1N(C)C(=O)C(C)(C)c1cc(C(F)(F)F)cc(C(F)(F)F)c1` is reported as 13.8 h (healthy volunteers, plasma; oral, dose not given, netupitant-palonosetron, fasted).
With `CC(=O)O[C@H]1C2=C(C(=O)C(OC(=O)c3ccc(C)cc3)=C(C(C)C)C2=O)[C@@]2(C)CCCC(C)(C)[C@@H]2[C@@H]1O` the GI50 was at most 5 µM (MOLT-3).
With `CN1CCC(C)(C)c2cc3c(-c4ccc(C(=O)N5CCCCC5)s4)c4ccc(=[N+](C)C)cc-4sc3cc21` the cell-associated fraction was 45 ± 1% (ATP-dependent translocase ABCB1 (ABCB1, Homo sapiens, UniProt P08183); substrate; concentration not given, with inhibitor).
For `CCC(=O)OC1=C(C(C)C)C(=O)C2=C(C1=O)[C@@]1(C)CCCC(C)(C)[C@@H]1[C@H](OC(=O)CC)[C@H]2OC(C)=O`, the GI50 was at most 5 µM (HL-60; cell growth).
`COCCOCCOCCOCCC(=O)NCc1cc(CNC(=O)CCOCCOCCOCCOC)cc(-c2cc3cc4nc(c(OC)c5[nH]c(cc6nc(cc2[nH]3)CC6(C)C)cc5-c2cc(CNC(=O)CCOCCOCCOCCOC)cc(CNC(=O)CCOCCOCCOCCOC)c2)CC4(C)C)c1` — result for “Qy emission maximum”: 735 nm (DMF; room temperature).
The GI50 of `CC(C)C1=C(O)C(=O)C2=C(C1=O)[C@H](O)[C@@H](O)[C@H]1C(C)(C)CCC[C@]21C` is reported as 10 to 30 µM (MCF7; cell growth).
`Cc1cc(N2CC[C@](C#N)(C3(C)CC3)C2=O)cc(C(=O)NCc2cc(F)cc(-c3cnn(C)c3)c2)n1` gave a CC50 of over 2 µM (MDA-MB-231).
`CCCC(=O)O[C@@H]1[C@@H](OC(C)=O)C2=C(C(=O)C(O)=C(C(C)C)C2=O)[C@@]2(C)CCCC(C)(C)[C@H]12` gave a GI50 of 5 to 10 µM (HL-60; cell growth).
The clearance of `C=C[C@@H]1C[C@]1(NC(=O)[C@@H]1C[C@@H](Oc2cc(-c3ccccc3)nc3cc(OC)ccc23)CN1C(=O)[C@@H](NC(=O)OC(C)(C)C)C(C)(C)C)C(=O)NS(=O)(=O)C1CC1` is reported as 55 mL/min/kg (rat; intravenous, 5 mg/kg).
